Experimental data collected from several papers.
Parts stem from different laboratories: compare values within a part only. Changes are numbered by the printed parent chain.

Series 1
Target: Interferon regulatory factor 3, full length, phosphomimetic (IRF3, Homo sapiens, UniProt Q14653, residues 1-427, S386D/S396D/S398D/S402D/T404D/S405D)
Chain of UniProt Q14653 (whole entry, unmodified, looked up): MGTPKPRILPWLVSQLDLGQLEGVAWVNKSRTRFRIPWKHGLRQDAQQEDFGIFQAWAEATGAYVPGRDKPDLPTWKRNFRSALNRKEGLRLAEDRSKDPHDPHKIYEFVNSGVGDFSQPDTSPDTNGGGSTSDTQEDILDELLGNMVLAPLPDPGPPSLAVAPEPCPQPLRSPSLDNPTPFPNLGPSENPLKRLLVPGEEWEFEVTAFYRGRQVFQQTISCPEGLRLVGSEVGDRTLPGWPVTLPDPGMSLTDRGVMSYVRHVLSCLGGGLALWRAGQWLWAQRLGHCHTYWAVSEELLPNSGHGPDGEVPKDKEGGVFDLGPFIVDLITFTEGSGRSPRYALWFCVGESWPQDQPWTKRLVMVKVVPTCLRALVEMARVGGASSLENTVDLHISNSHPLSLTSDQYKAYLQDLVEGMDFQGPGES
Method: protein-binding microarray
Form: double-stranded DNA, one strand shown
Medium: in vitro
Tested at: 2540 nM top
Notes: 60-bp whole probe
With: salmon DNA 0.4 mg/ml
Baseline: random background probes
Direction: higher = stronger binding
Shared flanks, not repeated: GCCTAGCAC … GTCTTGATTCGCTTGACGCTGCTG
`TTAGGTATCGGTTTTGGTTAGTGCTAG` — result for “fitted relative affinity”: 5.84 z-score.
`TTCCCTCTCCCCTCTTGTGCTGTGCTA`: “fitted relative affinity” 1.24 z-score.
`TTAGGTATAGGGTATCGGTTAGTGCTA`: “fitted relative affinity” 0.147 z-score.
`GCCCCACCCACTCTGGCCCCGTGCTAG` — result for “fitted relative affinity”: -0.226 z-score.
`TCAATCATTGCTTTCTCACTGTGCTAG`: “fitted relative affinity” 0.59 z-score.
`GACGGTATCCTTCTCGTGACGTGCTAG`: “fitted relative affinity” 7.5 z-score.
`ATACCTTAGGTTTTCTGGTTGTGCTAG` — result for “fitted relative affinity”: 0.344 z-score.
`AACACTCTTCTTTTGCTAATGTGCTAG` — result for “fitted relative affinity”: 0.834 z-score.
For `GACGGTATCCTACTGATGACGTGCTAG`, “fitted relative affinity” read 2.55 z-score.
`TTAGGTATCGGTTTCGGTAAGTGCTAG` — result for “fitted relative affinity”: 7.84 z-score.
`CTAGGTTTCGGTCTCGGTTAGTGCTAG`: “fitted relative affinity” 8.28 z-score.
For `TCTCTCCCTTTATCTCTTTTGTGCTAG`, “fitted relative affinity” read 2.93 z-score.
Under “fitted relative affinity”, `GACGATTTCAGGCTGGAGACGTGCTAG` is recorded as 0.528 z-score.
`TCCAGGGCGGTGGGTGGCCCGTGCTAG`: “fitted relative affinity” -1.55 z-score.
Under “fitted relative affinity”, `GACTGTCTCGGACTGGGGACGTGCTAG` is recorded as -0.0874 z-score.
`TTCGATATCGGGTATCGATTAGTGCTA` — result for “fitted relative affinity”: 0.786 z-score.
`TCTGATTTTGCTTTCATTTAGTGCTAG`: “fitted relative affinity” 1.49 z-score.
`TCAGGTTTGTACACCGCACTGTGCTAG`: “fitted relative affinity” 0.000352 z-score.
For `GACGATCTCAGTCTCGACACGTGCTAG`, “fitted relative affinity” read 0.708 z-score.
Under “fitted relative affinity”, `GACGGTTTCGGGTATCGAGACGTGCTA` is recorded as 4.87 z-score.
`TCAGGTTCTCTTTTATTACTGTGCTAG`: “fitted relative affinity” 2.12 z-score.

Series 2
Target: ABI1, truncated, D143A, DHFR fusion (Arabidopsis thaliana, UniProt P49597)
Method: DHFR PCA, dose-response
Medium: yeast
Notes: Hill fit, mean, not affinity
With: (+)-ABA, dose series
Direction: lower = more sensitive
Parent: PYL1, truncated, DHFR fusion (Arabidopsis thaliana, UniProt Q8VZS8); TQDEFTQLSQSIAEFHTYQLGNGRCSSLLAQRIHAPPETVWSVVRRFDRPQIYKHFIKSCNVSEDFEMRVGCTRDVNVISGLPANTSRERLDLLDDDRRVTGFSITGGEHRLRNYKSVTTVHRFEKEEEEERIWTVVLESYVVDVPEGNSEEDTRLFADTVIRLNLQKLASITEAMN
With `T173Y` the ABA EC50 was 118 µM.
`A175V` gave an ABA EC50 of 3.6 µM.
The ABA EC50 of `S42R` is reported as 3.59 µM.
`R90K` gave an ABA EC50 of 3.65 µM.
`N22T` gave an ABA EC50 of 2.34 µM.
`I79M` has an ABA EC50 of 7.34 µM.
`D97P` has an ABA EC50 of 32.7 µM.
`V78I` has an ABA EC50 of 2.21 µM.
The ABA EC50 of `L93S` is reported as 19.2 µM.
`T154C` has an ABA EC50 of 2.98 µM.
With `E4M` the ABA EC50 was 1.7 µM.
`F15M` gave an ABA EC50 of 13.5 µM.
`V136D` gave an ABA EC50 of 145 µM.
`E125C` has an ABA EC50 of 2.17 µM.

Series 3
Target: RNA binding protein fox-1 homolog 2, RRM domain, GST-SBP tag (RBFOX2, Homo sapiens, UniProt O43251-10, residues 100-194)
Method: RNA Bind-n-Seq
Form: RNA
Medium: in vitro
Tested at: 365 nM
Notes: natural RNA segment, single round, ends assumed
Baseline: no-protein control
Direction: higher = stronger binding
Shared flanks, not repeated: GGGAGUUCUACAGUCCGACGAUC … UGGAAUUCUCGGGUGCCAA
Residues (chain): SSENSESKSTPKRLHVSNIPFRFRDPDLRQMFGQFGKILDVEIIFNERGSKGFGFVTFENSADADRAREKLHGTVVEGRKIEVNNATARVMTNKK
`UAUGUCUAUUAUCUGGACAUGAUUUUGCUAUGCAGUUGUGAUAAUAAAAAUUCUAAUUCCUCAGGUUUGGCCUUUUAAGUUAUGGCUGAAGACCUUUAAUGAUACUUAUG` — result for “RBNS enrichment (R)”: 0.756.
For `UAGUAGUUUUUAUCACUAAAAAGUUGGACUUGGAGUCCUAUAGUAGUUUCAGCGUUAGAUAAAGUUUUUCCACCAUACAUCUUUAGGUGCAUUCAUCUUUAGGUGACUGA`, “RBNS enrichment (R)” read 0.437.
`GUUUGAUAUUUACCGUGAUAAUUACCUUACCUACCUACCUACUUUCAAUACACUUUAGGUAGCCGAUUAUCUGAUUUAAGUGCAGACACACUUUUCUCACAUUGAGUUGU` — result for “RBNS enrichment (R)”: 0.428.
`CCCUGGUUGUGGGGGAGAGUUCUAGAUCUGUGCCAUGAUCCAUACACUGGCUAAUAGAGUACAUAAUUUUUCCAUUUUCCAUUUUUUGUUUUUACUUACUACUGAAGGAU` — result for “RBNS enrichment (R)”: 0.553.
`GUGAACUCAGUAUGCAUGUGUGAAUGCUGAACUGCAGGAGUGGUGUUGAGGCGACCGAGAAGAUCCACGCAGCCAUCUUGGGUUUUGGUGAUGACGUCAGUCUAAUGAGU` — result for “RBNS enrichment (R)”: 22.8.
`CAAGGAAUAUUUUUUAAAGAGGAUUCUCAUAAGGAAAGCAAUGACUGUUCUUGCGGGGGAUAAAAAAGGGCUUGGGAGAUUCAUGCGAUGUGUCCAAUCGGAGACAAAAG`: “RBNS enrichment (R)” 0.658.
For `GGAAGCAUCUGUCUCACAUAGGCUGUAAGCUCUCUGAGAGCAGGCACCUGUCAUCCCAGUCCAUCCCACCGUUCCCUUACUGUACUCUGCAACUCACCAUCUGGAAUUAA`, “RBNS enrichment (R)” read 0.85.
Under “RBNS enrichment (R)”, `UUUGUACUUGCUUCCUCUCGACGCCUGCCACAACAGUUUUGCCAGUCACCAAACUCAGAAAAAACUAGCUGUGUGAGCAGCACCGUACCCUAGCGGUCUUCAGACAUUAA` is recorded as 0.285.
Under “RBNS enrichment (R)”, `AGCCUGCCAGUCAGCGAUGUUGAGGAGGCUCUCGUGGGCUGCCUGCGCCACUCACCCUCAGUGUCCUUCCGUGAGGCUUCUCGCCAAAGAUGAUAGAGGGUGAAUGAUCU` is recorded as 0.164.
Under “RBNS enrichment (R)”, `UCCAAAAUUAUUAAAUUUAUAAUUGUGCAAUUCUGUAAUUUCCCAAGGCAUAAGUAAUAUGACCCUACUGUCAGCUAGAUGUCUUAUCUUCAAAGAGAGUAUGCAUUAAU` is recorded as 0.66.
For `UCAGACGGGUUCCGGGGGCCUCAGAGGUGAUCCGGGAGUCGAGCAGCACAACAGGGAUGGUCGUCGGCAUUGUGGCUGCUGCCGCCCUCUGCAUCUUGAUCCUCCUGUAC`, “RBNS enrichment (R)” read 1.68.
`AAGCGUUGUUAGGUUUUUGUGUAAGAUUCUUGCUGUAGCGUGGAUAGCUGUGAUUGGUGAGUCAACCGUCUGUGGCUACCAGUUACACUGAGAUUGUAACAGCAUUUUUA`: “RBNS enrichment (R)” 0.453.

Series 4
Target: Sal-like protein 4, full length isoform A (SALL4, Homo sapiens, UniProt Q9UJQ4, residues 1-1053)
Chain of UniProt Q9UJQ4 (whole entry, looked up): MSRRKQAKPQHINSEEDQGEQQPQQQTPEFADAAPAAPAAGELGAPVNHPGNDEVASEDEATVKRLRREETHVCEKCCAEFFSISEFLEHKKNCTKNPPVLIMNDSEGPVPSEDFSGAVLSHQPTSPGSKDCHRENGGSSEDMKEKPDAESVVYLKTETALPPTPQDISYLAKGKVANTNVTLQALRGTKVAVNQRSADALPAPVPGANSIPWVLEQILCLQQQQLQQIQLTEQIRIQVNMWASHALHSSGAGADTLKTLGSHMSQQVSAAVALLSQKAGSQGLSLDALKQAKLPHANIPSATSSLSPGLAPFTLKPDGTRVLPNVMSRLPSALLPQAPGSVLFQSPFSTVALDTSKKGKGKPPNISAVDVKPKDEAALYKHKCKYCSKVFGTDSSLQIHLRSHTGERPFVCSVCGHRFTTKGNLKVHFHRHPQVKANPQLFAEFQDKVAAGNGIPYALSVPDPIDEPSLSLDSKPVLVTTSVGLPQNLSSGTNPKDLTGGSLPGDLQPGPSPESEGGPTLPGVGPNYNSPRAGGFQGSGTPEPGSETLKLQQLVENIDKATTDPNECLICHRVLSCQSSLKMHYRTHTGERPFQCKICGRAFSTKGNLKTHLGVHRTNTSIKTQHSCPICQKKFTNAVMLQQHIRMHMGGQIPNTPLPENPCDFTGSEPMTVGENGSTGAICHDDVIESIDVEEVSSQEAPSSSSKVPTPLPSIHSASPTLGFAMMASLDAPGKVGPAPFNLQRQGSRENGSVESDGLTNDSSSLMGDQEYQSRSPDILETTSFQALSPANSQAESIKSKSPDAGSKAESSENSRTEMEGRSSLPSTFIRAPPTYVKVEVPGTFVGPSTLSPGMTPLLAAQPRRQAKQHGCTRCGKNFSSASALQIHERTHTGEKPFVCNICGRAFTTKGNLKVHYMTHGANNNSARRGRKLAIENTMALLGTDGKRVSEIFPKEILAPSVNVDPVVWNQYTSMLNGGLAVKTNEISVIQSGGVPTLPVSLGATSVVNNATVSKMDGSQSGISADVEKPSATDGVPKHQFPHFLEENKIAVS
Method: universal PBM
Form: double-stranded DNA, one strand shown
Medium: in vitro
Tested at: 600 nM
Notes: 8-mer, flanks averaged, mean of replicates
Direction: higher = stronger binding
For `GTACGTTA`, the E-score was 0.213.
For `CGTATTCC`, the E-score was 0.0607.
`ATGAACAG` has an E-score of 0.12.
For `CAATAACG`, the E-score was 0.32.
`GGAATCGA` has an E-score of -0.172.
For `ACACCGTA`, the E-score was -0.0954.
The E-score of `CTGCACCA` is reported as -0.143.
For `CCTTGGCG`, the E-score was -0.422.
The E-score of `GAGCTATA` is reported as 0.123.
The E-score of `AGCTCGTC` is reported as -0.252.
The E-score of `AATCTCAC` is reported as -0.00239.
With `AACGAAAT` the E-score was 0.221.
For `CGCTTTCC`, the E-score was -0.188.
The E-score of `AACCGTGC` is reported as -0.172.
`TACTGCGA` gave an E-score of 0.00216.
For `AATACTAT`, the E-score was 0.313.
The E-score of `CACTCCAC` is reported as -0.0715.
With `GGCTTCAA` the E-score was -0.0203.
`AATACCCT` has an E-score of -0.0903.

Series 5
Target: CCNF, cyclin fold, Cln2 fusion (human)
Method: yeast growth competition, sequencing
Medium: yeast
Notes: strong parent motif
Baseline: not given
Direction: higher = stronger binding
Parent: RBL2 docking peptide (human); STTRRRLFVENDS
`L7S` — result for “normalised enrichment score”: -0.179.
`N11H` — result for “normalised enrichment score”: 8.33.
For `T2M`, “normalised enrichment score” read 7.88.
`D12C` — result for “normalised enrichment score”: 8.06.
Under “normalised enrichment score”, `F8Q` is recorded as 3.63.
`D12A` — result for “normalised enrichment score”: 7.27.
`R6W`: “normalised enrichment score” 1.
`E10Q`: “normalised enrichment score” 9.33.
`T2Y` — result for “normalised enrichment score”: 8.13.
For `F8C`, “normalised enrichment score” read 1.32.
`R5W`: “normalised enrichment score” 0.613.
`D12N` — result for “normalised enrichment score”: 6.92.
For `N11P`, “normalised enrichment score” read 9.03.
`R5M`: “normalised enrichment score” 0.793.
For `T2I`, “normalised enrichment score” read 7.39.
`R4G` — result for “normalised enrichment score”: 3.26.
Under “normalised enrichment score”, `D12M` is recorded as 8.04.
Under “normalised enrichment score”, `S1K` is recorded as 6.75.
Under “normalised enrichment score”, `L7M` is recorded as 1.3.
`R4P` — result for “normalised enrichment score”: 3.2.
`L7F` — result for “normalised enrichment score”: 1.13.
Under “normalised enrichment score”, `T2G` is recorded as 8.89.
`T3W` — result for “normalised enrichment score”: 5.94.
Under “normalised enrichment score”, `L7A` is recorded as 0.905.
For `R6G`, “normalised enrichment score” read 3.32.

A few entries again (series 1):
`TCAGGTTTGTACACCGCACTGTGCTAG`: “fitted relative affinity” 0.000352 z-score.
`GCCCCACCCACTCTGGCCCCGTGCTAG` — result for “fitted relative affinity”: -0.226 z-score.
`TTAGGTATAGGGTATCGGTTAGTGCTA`: “fitted relative affinity” 0.147 z-score.
`TTAGGTATCGGTTTTGGTTAGTGCTAG` — result for “fitted relative affinity”: 5.84 z-score.
For `GACGATCTCAGTCTCGACACGTGCTAG`, “fitted relative affinity” read 0.708 z-score.
`TCAATCATTGCTTTCTCACTGTGCTAG`: “fitted relative affinity” 0.59 z-score.
`TCTGATTTTGCTTTCATTTAGTGCTAG`: “fitted relative affinity” 1.49 z-score.
`TCAGGTTCTCTTTTATTACTGTGCTAG`: “fitted relative affinity” 2.12 z-score.
`TTAGGTATCGGTTTCGGTAAGTGCTAG` — result for “fitted relative affinity”: 7.84 z-score.
